Published values collected from several papers.

By UniProt entry, the sequences of proteins in these tests, tags left out.
UniProt P11712, whole entry: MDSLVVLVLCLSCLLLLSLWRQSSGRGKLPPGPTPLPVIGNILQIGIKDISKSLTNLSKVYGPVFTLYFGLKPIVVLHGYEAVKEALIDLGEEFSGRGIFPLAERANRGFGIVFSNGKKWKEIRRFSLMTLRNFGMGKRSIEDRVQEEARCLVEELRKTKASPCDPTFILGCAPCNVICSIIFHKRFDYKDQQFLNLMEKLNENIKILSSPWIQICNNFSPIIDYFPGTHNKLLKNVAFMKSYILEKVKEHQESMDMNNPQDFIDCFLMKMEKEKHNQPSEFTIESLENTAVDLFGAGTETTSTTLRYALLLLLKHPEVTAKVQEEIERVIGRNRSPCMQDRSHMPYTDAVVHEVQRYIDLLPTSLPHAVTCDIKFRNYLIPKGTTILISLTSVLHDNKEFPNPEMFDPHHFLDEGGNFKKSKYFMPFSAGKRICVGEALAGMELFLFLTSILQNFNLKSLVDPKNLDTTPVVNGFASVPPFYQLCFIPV
UniProt Q16539, whole entry: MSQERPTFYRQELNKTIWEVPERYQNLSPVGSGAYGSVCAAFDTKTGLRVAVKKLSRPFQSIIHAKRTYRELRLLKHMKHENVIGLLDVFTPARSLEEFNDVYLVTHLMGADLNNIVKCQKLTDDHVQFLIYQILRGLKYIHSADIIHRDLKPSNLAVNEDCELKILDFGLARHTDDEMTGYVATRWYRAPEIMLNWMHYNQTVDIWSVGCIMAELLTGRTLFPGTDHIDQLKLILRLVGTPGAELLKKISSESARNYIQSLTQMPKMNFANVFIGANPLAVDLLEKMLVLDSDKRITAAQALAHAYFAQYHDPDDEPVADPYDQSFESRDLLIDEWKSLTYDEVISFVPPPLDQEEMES
UniProt P00573, whole entry: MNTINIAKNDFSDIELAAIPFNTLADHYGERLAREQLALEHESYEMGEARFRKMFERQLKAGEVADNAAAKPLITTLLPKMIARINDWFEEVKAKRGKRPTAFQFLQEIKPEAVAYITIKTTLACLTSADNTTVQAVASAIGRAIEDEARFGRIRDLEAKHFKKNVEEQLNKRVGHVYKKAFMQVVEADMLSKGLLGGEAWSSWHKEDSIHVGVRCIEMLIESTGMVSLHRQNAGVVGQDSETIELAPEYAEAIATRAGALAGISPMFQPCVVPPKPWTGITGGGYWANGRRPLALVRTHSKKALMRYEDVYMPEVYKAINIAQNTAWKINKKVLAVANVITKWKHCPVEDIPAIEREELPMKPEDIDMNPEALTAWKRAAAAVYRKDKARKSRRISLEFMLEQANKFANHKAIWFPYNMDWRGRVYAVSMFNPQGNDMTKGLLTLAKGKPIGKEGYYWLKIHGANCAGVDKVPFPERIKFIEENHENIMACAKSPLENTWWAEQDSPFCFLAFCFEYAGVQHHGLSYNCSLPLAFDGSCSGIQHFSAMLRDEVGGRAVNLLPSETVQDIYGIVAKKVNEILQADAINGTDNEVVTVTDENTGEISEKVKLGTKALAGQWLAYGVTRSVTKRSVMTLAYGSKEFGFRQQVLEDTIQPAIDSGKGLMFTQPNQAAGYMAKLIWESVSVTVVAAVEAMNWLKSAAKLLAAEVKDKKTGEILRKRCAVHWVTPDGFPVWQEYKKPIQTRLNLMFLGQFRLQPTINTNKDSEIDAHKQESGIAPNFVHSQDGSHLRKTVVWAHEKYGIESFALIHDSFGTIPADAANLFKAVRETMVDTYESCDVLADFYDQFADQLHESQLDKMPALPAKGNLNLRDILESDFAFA

CCOC(=O)C1=C(C)N(c2cccc(C(F)(F)F)c2)C(=O)N(CC(=O)N(C)C)[C@@H]1c1ccc(C#N)cc1 — IC50 (Cytochrome P450 2C9 (CYP2C9, Homo sapiens, UniProt P11712); human liver microsomes; pH 7.4, added: diclofenac): > 50 µM
O=C(NCc1ccco1)C1CN(c2cc(-c3cc(F)cc(F)c3)n[nH]c2=O)C1 — IC50 (A549, HCT116, HCT116 p53, U2OS; cytotoxicity, MTS): > 36 µM
[2H]C(C)(CO[C@H]1CC[C@H](CN2CCN(c3ccc4c(c3F)n(C)c(=O)n4C3CCC(=O)NC3=O)CC2)CC1)NS(=O)(=O)c1ccc(Nc2ncc(C(F)(F)F)c([C@H]3CC[C@@](C)(O)CC3)n2)c(C)c1 (stereo partly shown) — logD (pH 7.4): 4.9 , 131
CCOC(=O)c1c(-c2ccc(Cl)cc2Cl)n(-c2nc(-c3ccc(Cl)cc3)c3c(NC(=O)c4ccccc4)nnc-3[nH]2)[nH]c1=O — cell growth (SN12C; SRB; 10 µM): -17.4%
CCCOc1ncnc2scc(C(=O)NCc3ccc(CNCc4ccccc4)cc3)c12 — EC50 (human red blood cells; hemolysis; 1 h, 37 °C, estimated, weak activity): > 100 µM
CC(C)C[C@H](NC(=O)[C@H](C)NC(=O)[C@H](CCCNC(=N)N)NC(=O)[C@H](CCCNC(=N)N)NC(=O)[C@H](CCCNC(=N)N)NC(=O)[C@H](C)NC(=O)[C@H](CC(C)C)NC(=O)[C@H](CCCNC(=N)N)NC(=O)[C@H](CO)NC(=O)[C@H](CCCCN)NC(=O)[C@H](CO)NC(=O)Cn1cc(COC(=O)[C@]2(C)C=C(C(=O)OC(C)(C)C)C(=O)CC2)nn1)C(=O)O — normalized kinase activity (MAPK14 (Homo sapiens, UniProt Q16539); enzyme activity, inhibitor, D-SENSOR; 0.003387 µM): 0.945
NS(=O)(=O)c1nnc(NC(=O)CC2C3CC4CC(C3)CC2C4)s1 (stereo not shown) — logD (n-octanol/PBS; pH 7.4): 2.35
C=C(C)C(=O)Nc1ccc(-c2c(-c3ccc(Oc4nccc(C)n4)c(F)c3)c3c(N)ncnc3n2C)cc1 — IC50 (MFE-319; cell growth, CellTiter-Glo; 120 h): 8.44 µM
NS(=O)(=O)c1nnc(NC(=O)C2C3CC4CC(C3)CC2C4)s1 (stereo not shown) — half-life (mouse liver microsomes): > 120 min
CC/C=C\C/C=C\CCC/C=C/C=C/C=C\CCCC(=O)O — IC50 (T7 RNA polymerase (Enterobacteria phage T7, UniProt P00573); enzyme activity, inhibitor): > 100 µM
COc1ncnc2scc(C(=O)NCc3ccc(CN4CCOCC4)cc3)c12 — EC50 (human red blood cells; hemolysis; 1 h, 37 °C, estimated, weak activity): > 100 µM
C=C1C(=O)OC2CC(C)C3=CC(=O)C(C)(CC(OC(=O)/C(C)=C\C)C12)O3 (stereo not shown) — IC50 (HT-29; cytotoxicity): 0.56 µM
Cc1ccc(S(=O)(=O)Nc2ccccc2C(=O)Nc2nc(-c3ccccc3)cs2)cc1 — half-life (rat liver microsomes; 37 °C, added: NADPH): 2.5 min
CN1C(=O)CCc2cc(CNC(C)(C)[C@@H](O)c3ccccc3)ccc21 — Cmax (male CD-1 mouse, plasma; subcutaneous, 10 mg/kg): 228 ng/mL
N#Cc1c(-c2ccc(Cl)cc2Cl)n(-c2nc(-c3ccc(Cl)cc3)c3c(NC(=O)c4ccccc4)nnc-3[nH]2)[nH]c1=O — cell growth (SK-OV-3; SRB; 10 µM): -5.94%
CCCCCCCCNCc1ccc(CNC(=O)c2csc3ncnc(OC)c23)cc1 — EC50 (human red blood cells; hemolysis; 1 h, 37 °C, estimated, weak activity): > 100 µM

Repeated from above:
C=C1C(=O)OC2CC(C)C3=CC(=O)C(C)(CC(OC(=O)/C(C)=C\C)C12)O3 (stereo not shown) — IC50 (HT-29; cytotoxicity): 0.56 µM
Cc1ccc(S(=O)(=O)Nc2ccccc2C(=O)Nc2nc(-c3ccccc3)cs2)cc1 — half-life (rat liver microsomes; 37 °C, added: NADPH): 2.5 min
CN1C(=O)CCc2cc(CNC(C)(C)[C@@H](O)c3ccccc3)ccc21 — Cmax (male CD-1 mouse, plasma; subcutaneous, 10 mg/kg): 228 ng/mL
